Published values of several laboratories.
A part holds a random share of what one study measured.

Set 1
Target: Prothrombin, mature alpha-thrombin (F2, Homo sapiens, UniProt P00734)
Method: aptamer microarray, sandwich
Form: DNA with 2'F-ANA
Matrix: in vitro
Concentration: 200 nM
Notes: whole 15-mer aptamer, many near background
Added: Cy3 exosite-II aptamer, 400 nM
Reading: higher = stronger binding
Measurement: mean fluorescence intensity
GGTTGGTGTGGTTGG (2'F-ANA at 1 4 7 10 11 14): 68.1 a.u.
GGTTGGTGTGGTTGG (2'F-ANA at 1 2 3 4 10 12): 78.8 a.u.
GGTTGGTGTGGTTGG (2'F-ANA at 1 3 5 7 9 10 11 12): 55.8 a.u.

Set 2
Target: Sal-like protein 4, full length isoform A (SALL4, Homo sapiens, UniProt Q9UJQ4, residues 1-1053)
Sequence of UniProt Q9UJQ4 (whole entry, looked up): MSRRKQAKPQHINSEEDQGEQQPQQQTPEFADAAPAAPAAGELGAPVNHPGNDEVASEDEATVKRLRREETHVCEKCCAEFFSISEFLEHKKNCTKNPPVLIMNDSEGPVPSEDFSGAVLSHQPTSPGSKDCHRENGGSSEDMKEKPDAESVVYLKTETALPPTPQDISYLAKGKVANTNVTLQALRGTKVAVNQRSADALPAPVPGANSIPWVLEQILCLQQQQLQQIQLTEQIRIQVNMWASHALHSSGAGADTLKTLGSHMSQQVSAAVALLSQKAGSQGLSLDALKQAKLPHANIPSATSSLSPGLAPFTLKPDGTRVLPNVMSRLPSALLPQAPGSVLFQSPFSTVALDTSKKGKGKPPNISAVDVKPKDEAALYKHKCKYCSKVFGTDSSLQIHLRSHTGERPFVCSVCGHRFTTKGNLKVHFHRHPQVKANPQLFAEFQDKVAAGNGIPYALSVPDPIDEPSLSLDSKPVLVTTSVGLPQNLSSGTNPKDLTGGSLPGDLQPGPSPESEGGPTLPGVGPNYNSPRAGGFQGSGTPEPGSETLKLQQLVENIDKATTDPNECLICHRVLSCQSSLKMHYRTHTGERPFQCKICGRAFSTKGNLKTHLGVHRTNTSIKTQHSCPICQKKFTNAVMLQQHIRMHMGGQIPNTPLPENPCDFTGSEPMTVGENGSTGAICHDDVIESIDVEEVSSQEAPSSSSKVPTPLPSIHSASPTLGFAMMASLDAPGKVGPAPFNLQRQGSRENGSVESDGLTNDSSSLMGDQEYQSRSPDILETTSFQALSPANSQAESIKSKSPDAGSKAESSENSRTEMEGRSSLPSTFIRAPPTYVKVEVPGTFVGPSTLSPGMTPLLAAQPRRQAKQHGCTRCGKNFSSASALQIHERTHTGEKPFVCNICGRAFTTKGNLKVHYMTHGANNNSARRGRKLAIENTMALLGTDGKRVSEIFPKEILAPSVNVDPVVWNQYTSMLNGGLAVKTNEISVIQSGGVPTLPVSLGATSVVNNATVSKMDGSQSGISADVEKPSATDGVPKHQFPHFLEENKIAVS
Method: universal PBM
Form: double-stranded DNA, one strand shown
Matrix: in vitro
Concentration: 600 nM
Notes: 8-mer, flanks averaged, mean of replicates
Reading: higher = stronger binding
Measurement: E-score
ACACGACA: 0.112
GACGTCAC: -0.245
GCGAAACC: -0.0755
GAATACCC: -0.153
CGAATTAG: 0.0523

Set 3
Target: Histone acetyltransferase KAT6A, winged helix 1, GST fusion (KAT6A, Homo sapiens, UniProt Q92794, residues 1-85)
Method: protein binding microarray
Form: double-stranded DNA, one strand shown
Matrix: in vitro
Concentration: not given
Notes: 8-mer, flanks averaged, mean of 2 arrays, mostly near background
Relative to: not given
Reading: higher = stronger binding
Measurement: E-score
Construct (chain): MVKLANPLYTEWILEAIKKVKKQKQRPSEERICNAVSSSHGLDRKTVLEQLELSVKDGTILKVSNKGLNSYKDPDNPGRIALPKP
GCCTCCAA: -0.074
ATTCTGAA: -0.0998
CAGGTCTC: -0.172
TACTCAAA: -0.0794

Other studies, line by line
PhoQ, residues 284 288 289 292 302 303 AANNSF — fold induction (PhoP, residues 12 14 15 18 19 SGWQI (Escherichia coli, UniProt P23836); Sort-seq, measured: YFP reporter; E. coli; PhoQ-PhoP variant library, added: 10 µM Mg2+; relative to: high Mg2+ state, higher = stronger signaling): 0.94

For quick reference, copied from above (set 2):
GAATACCC: -0.153
